Published values of several laboratories.
A part holds a random share of what one study measured. Substitutions count along the parent as printed.

Sample 1 — target: inorganic phosphate, free oxyanion; technique: microfluidic competitive inhibition; matrix: in vitro, cell-free expressed; concentration: not given; reading: lower = stronger binding
Notes: derived from inhibition constants, unchanged parent 615000 nM
Starting sequence: PafA, mature enzyme, eGFP fusion (Elizabethkingia meningoseptica, UniProt Q9KJX5); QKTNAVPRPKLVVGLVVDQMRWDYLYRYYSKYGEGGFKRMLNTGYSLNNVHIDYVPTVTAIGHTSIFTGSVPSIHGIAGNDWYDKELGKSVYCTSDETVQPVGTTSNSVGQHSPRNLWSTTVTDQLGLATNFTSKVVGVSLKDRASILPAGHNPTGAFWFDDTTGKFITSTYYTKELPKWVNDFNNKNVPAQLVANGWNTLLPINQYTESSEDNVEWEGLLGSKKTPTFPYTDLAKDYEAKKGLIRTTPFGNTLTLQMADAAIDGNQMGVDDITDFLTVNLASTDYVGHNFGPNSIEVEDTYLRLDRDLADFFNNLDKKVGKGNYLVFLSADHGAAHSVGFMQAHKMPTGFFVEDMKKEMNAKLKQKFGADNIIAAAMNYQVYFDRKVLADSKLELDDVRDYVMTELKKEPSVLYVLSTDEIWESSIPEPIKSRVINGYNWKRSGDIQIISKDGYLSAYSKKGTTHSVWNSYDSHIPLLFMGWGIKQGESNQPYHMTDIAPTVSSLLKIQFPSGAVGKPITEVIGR
Variant	phosphate dissociation constant [µM]
R434V	356
V91A	707
P227G	555
S106G	587
E424V	744
T200V	636
Y54V	105

Sample 2 — technique: RNA Bind-n-Seq; form: RNA; matrix: in vitro; concentration: 20 nM; notes: 6-mer, flanks averaged, single round; together with: 150 mM KCl; reference: input library; reading: higher = stronger binding
Target: TAR DNA-binding protein 43, full length, His tag (TARDBP, Homo sapiens, UniProt Q13148, residues 1-414)
Sequence	6-mer enrichment (R)
GAGACG	1.65
CGCAUA	0.656
UGUACA	0.66
GCACCA	0.816
CGUAUG	0.954
GCGCCC	0.807
ACUUAG	0.633
CGACGU	0.807

Sample 3 — target: CCNA2, cyclin fold, Cln2 fusion (human); technique: yeast growth competition, sequencing; matrix: yeast; notes: strong parent motif; reference: not given; reading: higher = stronger binding
Starting sequence: viral docking peptide; YKVKRRLVFGADD; partner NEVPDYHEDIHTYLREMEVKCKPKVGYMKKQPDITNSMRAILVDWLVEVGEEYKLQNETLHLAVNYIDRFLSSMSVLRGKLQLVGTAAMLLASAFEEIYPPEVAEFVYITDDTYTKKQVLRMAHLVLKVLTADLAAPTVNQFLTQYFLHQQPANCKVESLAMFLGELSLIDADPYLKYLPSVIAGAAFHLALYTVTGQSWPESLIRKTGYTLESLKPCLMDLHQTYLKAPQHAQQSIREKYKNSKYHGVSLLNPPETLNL
Variant	normalised enrichment score
R6V	5.16
V3D	0.498
A11D	6.42
A11I	6.11
R6C	5.62
R6Q	5.79
R5Q	4.41
A11Y	6.09
D12K	5.95
A11H	6.46
R5A L7A	0.955
G10H	5.91
V3T	6.22
D12C	6.41
V8K	6.6
L7V	1.68
V8Y	6.41
R5W	1.08
G10D	6.42
V3W	4.66
V3G	4.37
A11R	6.46
A11V	6.39
A11F	6.28
K4E	3.71

Sample 4 — observed: binding; technique: phage display NGS; form: peptide; reference: input library
Target: UDP-N-acetylglucosamine--peptide N-acetylglucosaminyltransferase 110 kDa subunit (OGT, Homo sapiens, UniProt O15294)
Sequence of UniProt O15294 (whole entry, looked up): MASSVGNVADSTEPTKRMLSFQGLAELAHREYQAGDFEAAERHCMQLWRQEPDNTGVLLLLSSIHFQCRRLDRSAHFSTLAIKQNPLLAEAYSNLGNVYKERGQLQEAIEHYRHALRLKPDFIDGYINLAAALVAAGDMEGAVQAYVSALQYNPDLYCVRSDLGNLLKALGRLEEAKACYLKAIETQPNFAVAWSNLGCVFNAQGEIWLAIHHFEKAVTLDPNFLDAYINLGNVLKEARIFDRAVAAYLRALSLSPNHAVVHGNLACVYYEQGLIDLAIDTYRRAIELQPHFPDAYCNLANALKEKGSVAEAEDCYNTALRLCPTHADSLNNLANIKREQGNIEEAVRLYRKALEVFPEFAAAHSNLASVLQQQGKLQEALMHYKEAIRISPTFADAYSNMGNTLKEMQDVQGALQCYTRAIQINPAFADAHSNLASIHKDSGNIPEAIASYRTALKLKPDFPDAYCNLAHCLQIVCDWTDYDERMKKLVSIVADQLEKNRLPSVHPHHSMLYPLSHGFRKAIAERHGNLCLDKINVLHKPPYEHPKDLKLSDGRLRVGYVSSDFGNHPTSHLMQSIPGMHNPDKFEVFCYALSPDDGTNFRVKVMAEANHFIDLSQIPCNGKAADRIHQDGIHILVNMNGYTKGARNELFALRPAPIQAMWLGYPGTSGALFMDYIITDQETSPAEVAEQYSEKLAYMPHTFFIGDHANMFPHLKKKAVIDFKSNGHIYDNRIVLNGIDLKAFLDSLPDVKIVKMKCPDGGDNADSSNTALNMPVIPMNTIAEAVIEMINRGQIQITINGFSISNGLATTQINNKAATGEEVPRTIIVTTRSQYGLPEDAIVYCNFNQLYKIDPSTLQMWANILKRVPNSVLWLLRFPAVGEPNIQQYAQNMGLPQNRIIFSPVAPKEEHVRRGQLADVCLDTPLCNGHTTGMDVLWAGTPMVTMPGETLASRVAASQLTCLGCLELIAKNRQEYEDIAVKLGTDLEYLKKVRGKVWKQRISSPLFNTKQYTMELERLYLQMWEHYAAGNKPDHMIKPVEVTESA
Molecule	minimum log2 enrichment ratio
WSAVMPQYRIEYNYA	5.89
VEHRPHYHHDKQQGT	2.3
HFNQHHHFFAVPPYD	2.69
HLQYPDHPIHEHTHI	3.66
GRSDHTPHFEYRAHA	1.61
QPSRQHHAEHHPWHR	3.19
APTYLPAYPIRYTME	4.35
QGDYMPFYQLRSKIT	2.63
QFQSRYRPFYQINVV	3.46

Further values, each from its own experiment — technique: cross-linking MS
Substance	partner	system	conditions	endpoint	result
P4HA2 (Homo sapiens, UniProt O15460)	P4HB (Homo sapiens, UniProt P07237)	cell fractions	together with: DMTMM	cross-linked residues	K328 to E303
MTA2 (Homo sapiens, UniProt O94776)	HDAC2 (Homo sapiens, UniProt Q92769)	cell fractions	together with: DSSO	cross-linked residues	K71 to K221
FASTKD3 (Homo sapiens, UniProt Q14CZ7)	FASTKD1 (Homo sapiens, UniProt Q53R41)	–	hits only	interaction screen	cross-linked
MYL6 (Homo sapiens, UniProt P60660)	MYO18A (Homo sapiens, UniProt Q92614)	cell fractions	together with: DMTMM	cross-linked residues	E14 to K1212

Some of these lines once more (sample 3):
Variant	normalised enrichment score
R5Q	4.41
A11Y	6.09
D12K	5.95
A11H	6.46
R5A L7A	0.955
G10H	5.91
V3T	6.22
D12C	6.41
V8K	6.6
